Measured values pooled from the literature.
Protocols differ between the studies behind these lines.
HLA class I histocompatibility antigen, B alpha chain allele B*40:01: HLA class I histocompatibility antigen, B alpha chain, allele B*40:01 (Homo sapiens, UniProt P01889)
HLA class I histocompatibility antigen, B alpha chain allele B*27:05: HLA class I histocompatibility antigen, B alpha chain, allele B*27:05 (Homo sapiens, UniProt P01889)
HLA class I histocompatibility antigen, B alpha chain allele B*18:01: HLA class I histocompatibility antigen, B alpha chain, allele B*18:01 (Homo sapiens, UniProt P01889)

CSCC[C@H](NC(=O)[C@H](CCC(=O)O)NC(=O)[C@H](CCC(=O)O)NC(=O)[C@@H](N)CCCNC(=N)N)C(=O)N[C@@H](CCC(=O)O)C(=O)N[C@H](C(=O)N[C@@H](Cc1c[nH]cn1)C(=O)N[C@@H](CCC(=O)O)C(=O)N[C@@H](CC(C)C)C(=O)O)C(C)C — IC50 (HLA class I histocompatibility antigen, B alpha chain allele B*40:01; binding, competitor, radioligand competition; two days, room temperature, HLA-B*40:01): 20 nM
CSCC[C@H](NC(=O)[C@H](CCCNC(=N)N)NC(=O)[C@@H](N)Cc1ccccc1)C(=O)N[C@@H](Cc1ccccc1)C(=O)N[C@@H](CC(C)C)C(=O)N[C@H](C(=O)N[C@@H](CCC(N)=O)C(=O)NCC(=O)N[C@@H](Cc1ccccc1)C(=O)O)[C@@H](C)O — IC50 (HLA class I histocompatibility antigen, B alpha chain allele B*27:05; peptide binding, fluorescence anisotropy; 18 h, 4 °C): 2 nM
CC[C@H](C)[C@H](NC(=O)[C@H](CCCNC(=N)N)NC(=O)CNC(=O)[C@@H](NC(=O)[C@@H]1CCCN1C(=O)[C@@H](N)CCSC)[C@@H](C)CC)C(=O)N[C@@H](C)C(=O)N[C@@H](CCC(=O)O)C(=O)N[C@@H](CS)C(=O)N[C@H](C(=O)N[C@@H](CC(C)C)C(=O)O)[C@@H](C)CC — IC50 (HLA class I histocompatibility antigen, B alpha chain allele B*40:01; binding, competitor, radioligand competition; two days, room temperature, HLA-B*40:01): 2260 nM
CSCC[C@H](NC(=O)[C@H](Cc1c[nH]cn1)NC(=O)[C@H](CC(=O)O)NC(=O)[C@H](Cc1ccc(O)cc1)NC(=O)[C@H](CCC(N)=O)NC(=O)[C@@H](N)CCCCN)C(=O)N[C@@H](Cc1ccc(O)cc1)C(=O)N[C@@H](CCC(N)=O)C(=O)N[C@@H](CC(C)C)C(=O)O — IC50 (HLA class I histocompatibility antigen, B alpha chain allele B*40:01; binding): 1270 nM
CC[C@H](C)[C@H](NC(=O)[C@H](CCCNC(=N)N)NC(=O)CNC(=O)[C@H](CC(C)C)NC(=O)[C@@H](NC(=O)[C@H](CC(C)C)NC(=O)[C@H](CC(C)C)NC(=O)[C@H](CCCNC(=N)N)NC(=O)[C@@H](N)CCCNC(=N)N)[C@@H](C)CC)C(=O)O — IC50 (HLA class I histocompatibility antigen, B alpha chain allele B*27:05; peptide binding, fluorescence anisotropy; 18 h, 4 °C): 311 nM
CSCC[C@H](NC(=O)[C@H](CO)NC(=O)[C@H](CC(C)C)NC(=O)[C@@H](NC(=O)[C@H](Cc1c[nH]cn1)NC(=O)[C@H](CCCCN)NC(=O)[C@H](Cc1ccccc1)NC(=O)[C@H](CCC(N)=O)NC(=O)[C@@H](N)CCCCN)[C@@H](C)O)C(=O)O — IC50 (HLA class I histocompatibility antigen, B alpha chain allele B*40:01; binding): 5760 nM
CSCC[C@H](NC(=O)[C@H](C)NC(=O)[C@@H](NC(=O)[C@H](Cc1ccccc1)NC(=O)[C@H](Cc1ccccc1)NC(=O)[C@H](Cc1ccccc1)NC(=O)[C@H](Cc1ccc(O)cc1)NC(=O)[C@H](CCCNC(=N)N)NC(=O)[C@@H](N)Cc1c[nH]cn1)C(C)C)C(=O)O — IC50 (HLA class I histocompatibility antigen, B alpha chain allele B*27:05; peptide binding, fluorescence anisotropy; 18 h, 4 °C): 353 nM
C[C@@H](O)[C@H](NC(=O)[C@H](CO)NC(=O)[C@@H]1CCCN1C(=O)[C@H](CCC(=O)O)NC(=O)[C@H](Cc1ccccc1)NC(=O)[C@H](CCC(=O)O)NC(=O)[C@@H](N)CCC(=O)O)C(=O)N[C@@H](CCC(N)=O)C(=O)N[C@@H](Cc1ccc(O)cc1)C(=O)N[C@@H](CCC(=O)O)C(=O)N[C@@H](Cc1ccc(O)cc1)C(=O)O — IC50 (HLA class I histocompatibility antigen, B alpha chain allele B*18:01; peptide-MHC binding, radioligand competition binding): 1.1 nM
CC[C@H](C)[C@H](NC(=O)[C@@H]1CCCN1C(=O)[C@H](CO)NC(=O)[C@H](CCSC)NC(=O)[C@H](CCC(N)=O)NC(=O)[C@@H](N)CCCCN)C(=O)N[C@@H](Cc1c[nH]c2ccccc12)C(=O)N[C@H](C(=O)N[C@@H](Cc1ccc(O)cc1)C(=O)O)[C@@H](C)O — IC50 (HLA class I histocompatibility antigen, B alpha chain allele B*40:01; binding): 45700 nM
CC(C)C[C@H](NC(=O)[C@H](CCC(N)=O)NC(=O)[C@H](CC(=O)O)NC(=O)[C@H](C)NC(=O)[C@@H](N)Cc1c[nH]cn1)C(=O)N[C@H](C(=O)N1CCC[C@H]1C(=O)N[C@H](C(=O)N[C@@H](Cc1c[nH]c2ccccc12)C(=O)O)[C@@H](C)O)[C@@H](C)O — IC50 (HLA class I histocompatibility antigen, B alpha chain allele B*18:01; peptide-MHC binding, radioligand competition binding): 3350 nM
CC[C@H](C)[C@H](NC(=O)[C@H](CCCNC(=N)N)NC(=O)[C@@H](N)Cc1ccccc1)C(=O)N[C@@H](CS)C(=O)N1CCC[C@H]1C(=O)N[C@H](C(=O)N[C@@H](Cc1ccccc1)C(=O)N[C@H](C(=O)N[C@@H](Cc1ccccc1)C(=O)O)C(C)C)[C@@H](C)CC — IC50 (HLA class I histocompatibility antigen, B alpha chain allele B*27:05; peptide binding, fluorescence anisotropy; 18 h, 4 °C): 877 nM
CC[C@H](C)[C@H](NC(=O)[C@H](CCCCN)NC(=O)[C@H](Cc1ccccc1)NC(=O)[C@H](Cc1ccc(O)cc1)NC(=O)CNC(=O)[C@H](CC(=O)O)NC(=O)[C@@H](NC(=O)[C@H](CC(N)=O)NC(=O)[C@@H](N)CCCCN)[C@@H](C)CC)C(=O)N[C@@H](Cc1ccc(O)cc1)C(=O)O — IC50 (HLA class I histocompatibility antigen, B alpha chain allele B*18:01; peptide-MHC binding, radioligand competition binding): > 70000 nM
CC(C)C[C@H](NC(=O)[C@@H](NC(=O)[C@@H](NC(=O)[C@H](CC(=O)O)NC(=O)[C@H](Cc1ccccc1)NC(=O)[C@H](CCC(N)=O)NC(=O)[C@@H](N)CCCCN)C(C)C)[C@@H](C)O)C(=O)N[C@@H](Cc1ccc(O)cc1)C(=O)N[C@@H](Cc1ccccc1)C(=O)O — IC50 (HLA class I histocompatibility antigen, B alpha chain allele B*40:01; binding): 4740 nM
CC[C@H](C)[C@H](NC(=O)[C@@H](NC(=O)[C@H](Cc1c[nH]c2ccccc12)NC(=O)[C@H](CC(=O)O)NC(=O)[C@@H](NC(=O)[C@H](CCCNC(=N)N)NC(=O)[C@@H](N)CCCCN)C(C)C)[C@@H](C)O)C(=O)N[C@@H](CCC(=O)O)C(=O)N[C@@H](Cc1ccc(O)cc1)C(=O)O — IC50 (HLA class I histocompatibility antigen, B alpha chain allele B*18:01; peptide-MHC binding, radioligand competition binding): > 70000 nM
CC[C@H](C)[C@H](NC(=O)[C@H](CCC(N)=O)NC(=O)[C@@H]1CCCN1C(=O)[C@H](Cc1ccc(O)cc1)NC(=O)[C@@H]1CCCN1C(=O)[C@@H](N)CC(C)C)C(=O)N[C@@H](CC(C)C)C(=O)N[C@@H](CC(C)C)C(=O)N[C@@H](CC(C)C)C(=O)O — IC50 (HLA class I histocompatibility antigen, B alpha chain, allele B*51:01 (Homo sapiens, UniProt P01889); binding, competitor): 66 nM
CC(C)C[C@H](NC(=O)[C@H](Cc1c[nH]cn1)NC(=O)[C@H](CCCNC(=N)N)NC(=O)[C@@H](N)Cc1ccc(O)cc1)C(=O)N[C@@H](Cc1ccccc1)C(=O)N[C@@H](CCCCN)C(=O)N[C@H](C(=O)N[C@@H](Cc1ccccc1)C(=O)N[C@@H](CCCNC(=N)N)C(=O)O)C(C)C — IC50 (HLA class I histocompatibility antigen, B alpha chain allele B*27:05; peptide binding, fluorescence anisotropy; 18 h, 4 °C): 70 nM
CC[C@H](C)[C@H](NC(=O)[C@H](CC(C)C)NC(=O)CN)C(=O)N[C@H](C(=O)N[C@@H](CC(C)C)C(=O)N[C@@H](CO)C(=O)N[C@@H](Cc1ccc(O)cc1)C(=O)N[C@@H](Cc1c[nH]cn1)C(=O)N[C@@H](CC(C)C)C(=O)O)[C@@H](C)O — IC50 (HLA class I histocompatibility antigen, B alpha chain allele B*18:01; peptide-MHC binding, radioligand competition binding): > 70000 nM
CC(C)C[C@H](NC(=O)[C@@H]1CCCN1C(=O)[C@H](CCC(N)=O)NC(=O)[C@H](CCCNC(=N)N)NC(=O)[C@H](Cc1c[nH]cn1)NC(=O)[C@H](CC(C)C)NC(=O)[C@H](Cc1ccccc1)NC(=O)[C@H](CCCNC(=N)N)NC(=O)[C@@H](N)CCCCN)C(=O)O — IC50 (HLA class I histocompatibility antigen, B alpha chain allele B*27:05; peptide binding, fluorescence anisotropy; 18 h, 4 °C): 73 nM
CC[C@H](C)[C@H](NC(=O)[C@@H](NC(=O)[C@@H](NC(=O)[C@H](CC(N)=O)NC(=O)[C@@H](NC(=O)[C@H](CO)NC(=O)[C@H](CC(N)=O)NC(=O)[C@H](CC(C)C)NC(=O)[C@@H](N)Cc1ccc(O)cc1)[C@@H](C)O)C(C)C)[C@@H](C)O)C(=O)O — IC50 (HLA class I histocompatibility antigen, B alpha chain allele B*18:01; peptide-MHC binding, radioligand competition binding): > 70000 nM

Repeated from above:
CC[C@H](C)[C@H](NC(=O)[C@H](CC(C)C)NC(=O)CN)C(=O)N[C@H](C(=O)N[C@@H](CC(C)C)C(=O)N[C@@H](CO)C(=O)N[C@@H](Cc1ccc(O)cc1)C(=O)N[C@@H](Cc1c[nH]cn1)C(=O)N[C@@H](CC(C)C)C(=O)O)[C@@H](C)O — IC50 (HLA class I histocompatibility antigen, B alpha chain allele B*18:01; peptide-MHC binding, radioligand competition binding): > 70000 nM
CC(C)C[C@H](NC(=O)[C@@H]1CCCN1C(=O)[C@H](CCC(N)=O)NC(=O)[C@H](CCCNC(=N)N)NC(=O)[C@H](Cc1c[nH]cn1)NC(=O)[C@H](CC(C)C)NC(=O)[C@H](Cc1ccccc1)NC(=O)[C@H](CCCNC(=N)N)NC(=O)[C@@H](N)CCCCN)C(=O)O — IC50 (HLA class I histocompatibility antigen, B alpha chain allele B*27:05; peptide binding, fluorescence anisotropy; 18 h, 4 °C): 73 nM
CC[C@H](C)[C@H](NC(=O)[C@@H](NC(=O)[C@@H](NC(=O)[C@H](CC(N)=O)NC(=O)[C@@H](NC(=O)[C@H](CO)NC(=O)[C@H](CC(N)=O)NC(=O)[C@H](CC(C)C)NC(=O)[C@@H](N)Cc1ccc(O)cc1)[C@@H](C)O)C(C)C)[C@@H](C)O)C(=O)O — IC50 (HLA class I histocompatibility antigen, B alpha chain allele B*18:01; peptide-MHC binding, radioligand competition binding): > 70000 nM
